Experimental data of several laboratories.
A part holds a random share of what one study measured.

Sample 1
Target: Prothrombin, mature alpha-thrombin (F2, Homo sapiens, UniProt P00734)
Method: aptamer microarray, sandwich
Molecule type: DNA with 2'F-ANA
Medium: in vitro
Tested at: 200 nM
Notes: whole 15-mer aptamer, many near background
With: Cy3 exosite-II aptamer, 400 nM
Reading: higher = stronger binding
Oligonucleotide: GGTTGGTGTGGTTGG
Modification	mean fluorescence intensity
2'F-ANA at 1 3 5 6 11 13 14	56 a.u.
2'F-ANA at 1 3 6 7 8 9 10 11 13 14 15	66.5 a.u.
2'F-ANA at 2 3 4 5 9 11 14 15	53.3 a.u.
2'F-ANA at 2 3 4 6 8 9 10 11 14	153 a.u.
2'F-ANA at 1 3 4 8 9 11 12 14	74.4 a.u.
2'F-ANA at 2 3 4 5 7 8 10 13 14 15	57.9 a.u.
2'F-ANA at 1 3 4 9 10 12 14	65.4 a.u.
2'F-ANA at 1 5 6 9 11 14 15	46.1 a.u.
2'F-ANA at 1 3 4 6 9 10 11 13 14	54.4 a.u.
2'F-ANA at 1 3 8 11 14 15	93.6 a.u.
2'F-ANA at 1 2 3 4 6 10 12	75.4 a.u.
2'F-ANA at 1 2 7 9 10 13 15	49.9 a.u.
2'F-ANA at 1 3 4 5 8 9 11 12 13 14	47.6 a.u.
2'F-ANA at 2 5 6 7 11 12 13 14 15	52.5 a.u.
2'F-ANA at 1 3 4 5 7 8 9 10 13 14	47.5 a.u.
2'F-ANA at 1 3 4 6 7 9 10 12 13 14 15	54.8 a.u.
2'F-ANA at 1 3 4 5 6 10 12 15	49.8 a.u.
2'F-ANA at 1 2 3 4 5 6 9 10 11 12 13 14	53.9 a.u.
2'F-ANA at 1 3 5 7 9 12 14	45.9 a.u.
2'F-ANA at 1 3 4 6 7 8 9 10 11 12 13 14 15	57.2 a.u.
2'F-ANA at 5 6 7 8 9 10 12 14 15	45.8 a.u.
2'F-ANA at 1 5 8 9 14	51.1 a.u.
2'F-ANA at 1 3 4 5 9 11 12 13	127 a.u.
2'F-ANA at 6 8 9 12 14	242 a.u.
2'F-ANA at 1 2 4 5 6 7 10 12 15	54.2 a.u.

Sample 2
Target: RNA binding protein fox-1 homolog 2, RRM domain, GST-SBP tag (RBFOX2, Homo sapiens, UniProt O43251-10, residues 100-194)
Method: RNA Bind-n-Seq
Molecule type: RNA
Medium: in vitro
Tested at: 365 nM
Notes: natural RNA segment, single round, ends assumed
Reference: no-protein control
Reading: higher = stronger binding
Target sequence (chain): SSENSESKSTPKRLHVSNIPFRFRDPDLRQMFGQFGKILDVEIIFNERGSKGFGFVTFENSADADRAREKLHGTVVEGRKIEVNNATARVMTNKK
Oligonucleotide	RBNS enrichment (R)
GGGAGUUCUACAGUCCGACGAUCCUUGAAAGGUAUUAAGGAAAAAAUUCCACAUAGCUCUGGGCCUUUUUUGUAUUCUGAUUGCCACGUUAAUCUGUAAUCGUUAAGUACCCAUGAAAGAAUGUGUUUCAGUAUGGAAUUCUCGGGUGCCAA	0.487
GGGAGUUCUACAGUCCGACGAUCGGGUCCCCCCAGGGAGCUGCCCAUGGCUUUAUUUAUGAACCUGGUUUUCGGGAGUCAGGGGAGGAGAUGACUUUGCUUCUGUGCACAGCCCCGUCUUCCAGGAGCCACAAUGGAAUUCUCGGGUGCCAA	0.406
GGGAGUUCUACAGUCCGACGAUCCAGCCCACGCUGGUCUGUCCCCAUGCCUUCCCAGGGCUUCUUCAUGUCGGAUGCACCCAAGUCCUUAGCCCAGCUGUGCCACCUGCAGGAGUUCGCUCUUGCGUUUCUUCUGGAAUUCUCGGGUGCCAA	0.405
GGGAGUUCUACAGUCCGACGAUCAUGAUUUGUGGCAUCUCAACCAAGGGCCCCUGUGUGUGUGUGUUUGUGUGUGUGUACACAUAUCUGUGCCUGUGUGUCUUCCCUUGUGUCCAUAUUUAAUGUGUAAGAACUGGAAUUCUCGGGUGCCAA	1.2
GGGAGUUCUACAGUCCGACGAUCCCAGAACCCUCUGCGCCUUGAGAUGAGUCUGCCAUGAGAACUUGCUCACGCUGCAGAGUCUCUGUGGCGUACCUGGGGGCAUUCUAAGUCCAGUGACUUUUGAAAUUCAAUGGAAUUCUCGGGUGCCAA	0.232
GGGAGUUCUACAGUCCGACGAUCCAUGGUUAAAACAUUAUUCUCCUAUGAUAUUCAGAUUCUAGUUCUAUAUACUUCAUUAUAUAACUUUGAAUUGAUCUGGUGCCAUGACUUUUCUACUUUCAAGAACUAUGUGGAAUUCUCGGGUGCCAA	0.495
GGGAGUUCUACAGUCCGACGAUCAACGAUUUUUAAAUAACGUCUGUGCCUCCACUGGUUGAGGGUGGAACCUCCAGGCAGGAACCGGCUCGCCACCCUCUGCCCGGUAAGGGCUGCCCAAGAAAGCAUUACCCUGGAAUUCUCGGGUGCCAA	0.378
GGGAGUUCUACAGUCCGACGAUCGGAAACGUUUGAAAGUGUUUGUUUCCUUCAUAUGAACCUGUAAAAUGCUGUGUAGCUGGAGUUCACGCUCACAGCCUUUAGCGCUUUGUUGCUUGUUUUGUUUUAAUCUGUGGAAUUCUCGGGUGCCAA	0.632
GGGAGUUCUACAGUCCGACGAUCAGCUGUGUUAAGGCGCUGCUUCAGAUGCAAGUUCACCUGGAAAUACUGGUCAGCGGGCAGCACGUCAAGGUCACUUAAGCCCACUUUUAACUGCAGGUCAUCCUCGCAUCUGGAAUUCUCGGGUGCCAA	1.34
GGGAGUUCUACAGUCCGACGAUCGUGGAGCUGCCACAGAGAAGUUUGUAGCCAGGUACUGCAUUCUCUCCCAUCCUGGGGCAGCACUCCCCAGAGCUGUGCCAGCAGGGGGGCUGUGCCAACCUGUUCUUAGAUGGAAUUCUCGGGUGCCAA	0.291
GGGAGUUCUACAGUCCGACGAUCUGAAAGAGAUUCUUGACCUUAUUUCUAAACGUCUAGAGCUCUGAAAUGUCUUGAUGGAAGGUAUUAAACUAUUUGCCUGUUGUACAAAGAAAUGUUAAGACUCGUGAAAAUGGAAUUCUCGGGUGCCAA	0.524
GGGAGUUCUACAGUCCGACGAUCCAUUUUCAAUAACGCGCGCACAGCACACAGGGGUGCCCUGAGCCGAAGGAGCAAAAAAAGCCACCGCUCGUUUCUAUAAUCCAGCUUUGCUUUUCACAGGCGUGGGAUCCUGGAAUUCUCGGGUGCCAA	0.502

Sample 3
Target: Ras GTPase-activating protein-binding protein 1, RRM domain (G3BP1, Homo sapiens, UniProt Q13283)
Sequence of UniProt Q13283 (whole entry, looked up): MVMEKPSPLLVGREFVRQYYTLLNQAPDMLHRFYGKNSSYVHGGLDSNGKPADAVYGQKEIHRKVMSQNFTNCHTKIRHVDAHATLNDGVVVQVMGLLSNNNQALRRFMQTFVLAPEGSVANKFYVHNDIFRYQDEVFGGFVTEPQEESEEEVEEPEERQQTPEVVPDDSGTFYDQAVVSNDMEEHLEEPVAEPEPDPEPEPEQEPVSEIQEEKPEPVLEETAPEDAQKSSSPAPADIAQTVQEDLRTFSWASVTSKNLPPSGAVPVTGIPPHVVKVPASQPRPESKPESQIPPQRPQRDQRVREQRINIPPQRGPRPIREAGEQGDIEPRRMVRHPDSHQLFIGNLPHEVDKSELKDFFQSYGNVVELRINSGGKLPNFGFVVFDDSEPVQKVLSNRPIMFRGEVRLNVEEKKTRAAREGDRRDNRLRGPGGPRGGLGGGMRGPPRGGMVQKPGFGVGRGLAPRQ
Method: RNA Bind-n-Seq
Molecule type: RNA
Medium: in vitro
Tested at: 1 µM
Notes: whole 134-nt RNA, ends assumed
With: 150 mM KCl
Reference: input library
Reading: higher = stronger binding
Oligonucleotide	log2 enrichment
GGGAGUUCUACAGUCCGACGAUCUCCUGUGCUACACAUCGUAUGUACCGAAUCGGCCCCCCGGGCCCCCCGGGGCCCCCCGGAAAGUAUUAUGUUACGCCGUUCGGAUCUGCAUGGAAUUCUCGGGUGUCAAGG	-0.391
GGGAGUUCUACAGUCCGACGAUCUCCUGUGCUACACAUCGUAUGUACCGAAUCGGCCCCCCGGCCCCCCGGGGCCCCCCGGGGAAAGUAUUAUGUUACGCCGUUCGGAUCUGCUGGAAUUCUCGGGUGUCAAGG	-0.462
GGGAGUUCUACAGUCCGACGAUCUGUGCUACACAUCGUAUGUACCGAAUCGGGGAAAAAGGGGUUUUUUUGGGGAAAAAAAGGGGAAAGUAUUAUGUUACGCCGUUCGGAUCUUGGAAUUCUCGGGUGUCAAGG	1.33
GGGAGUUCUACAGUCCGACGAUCCCUGUGCUACACAUCGUAUGUACCGAAUCGGGCCCCCCCGGCCCCCCCGGGCCCCCCCGGAAAGUAUUAUGUUACGCCGUUCGGAUCUGCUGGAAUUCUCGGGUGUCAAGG	-0.614
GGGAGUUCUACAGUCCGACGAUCCUGUGCUACACAUCGUAUGUACCGAAUCGGGGAAAAAAAGGGAAAAAAAGGGAAAAAAAGGAAAGUAUUAUGUUACGCCGUUCGGAUCUGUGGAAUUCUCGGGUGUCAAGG	0.0532
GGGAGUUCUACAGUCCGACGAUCUGUAUCCCUGUUUCUUUUCUCCCUACAGAAACAUAUGAGGAUUUUGAUACCAGGAUACUUGAGGUAGGCAUGCAGAAUUAAAUACCUGGUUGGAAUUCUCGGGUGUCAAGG	-0.166
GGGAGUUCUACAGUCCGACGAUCUGGCCCUGGUGGCAUGCGGGGAGGAAGAGGGGGCCUCAUGGAUCGUGGUGGUCCCGGUGGAAUGUUCAGAGGUGGCCGUGGUGGAGACAGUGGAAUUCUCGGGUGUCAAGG	0.908
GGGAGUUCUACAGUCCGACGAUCGUCCUGUGCUACACAUCGUAUGUACCGAAUCGGGUUUUUUUGGGAGGGAAAAAAAGGGAAAGUAUUAUGUUACGCCGUUCGGAUCUGCACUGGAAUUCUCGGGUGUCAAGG	-0.0437
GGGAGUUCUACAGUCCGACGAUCGGCCCGACCUGAUCGACUUUGAUAAGCUGAAGGACUCCAAUGCCCGGCACAACCUGGAGCACGCAUUCAAUGUGGCUGAGCGCCAGCUGGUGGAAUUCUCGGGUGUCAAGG	-0.192
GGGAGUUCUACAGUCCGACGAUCGUCCUGUGCUACACAUCGUAUGUACCGAAUCGGGGUUUUUGGGGAAAGGGGAAAGGGGAAAGUAUUAUGUUACGCCGUUCGGAUCUGCACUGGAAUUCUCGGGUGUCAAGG	1.8

Sample 4
Target: Interferon regulatory factor 7, full length, phosphomimetic (IRF7, Homo sapiens, UniProt Q92985, residues 1-503, S101K/S471D/S472D/S475D/S476D/S477D/S483D/S484D/S487D)
Sequence of UniProt Q92985 (whole entry, unmodified, looked up): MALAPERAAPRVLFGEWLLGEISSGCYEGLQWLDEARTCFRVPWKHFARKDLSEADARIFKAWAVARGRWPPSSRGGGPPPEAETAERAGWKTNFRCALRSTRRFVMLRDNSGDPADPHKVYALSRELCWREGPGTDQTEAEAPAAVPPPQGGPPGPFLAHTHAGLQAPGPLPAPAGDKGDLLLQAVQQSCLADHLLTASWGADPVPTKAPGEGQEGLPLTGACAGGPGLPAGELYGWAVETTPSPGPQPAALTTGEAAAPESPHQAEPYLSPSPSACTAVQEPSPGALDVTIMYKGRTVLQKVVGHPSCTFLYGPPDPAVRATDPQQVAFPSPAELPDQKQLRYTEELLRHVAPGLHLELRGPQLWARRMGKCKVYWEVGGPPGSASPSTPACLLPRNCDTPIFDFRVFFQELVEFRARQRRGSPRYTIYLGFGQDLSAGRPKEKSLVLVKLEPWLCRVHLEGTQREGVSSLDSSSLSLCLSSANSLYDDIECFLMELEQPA
Method: protein-binding microarray
Molecule type: double-stranded DNA, one strand shown
Medium: in vitro
Tested at: 250 nM
Notes: 60-bp whole probe
With: salmon DNA 0.4 mg/ml
Reference: random background probes
Reading: higher = stronger binding
Shared flanks, not repeated: GCCTAGCAC … GTCTTGATTCGCTTGACGCTGCTG
Oligonucleotide	log fluorescence
TTAGGTATCGGGTACCGGTTAGTGCTA	0.93 z-score
TCACGTAAGCAAAAATGACTGTGCTAG	-0.454 z-score
TCATTTCTATTTTCTGAACTGTGCTAG	2.76 z-score
TCAGATTTCGGGTATCGATTAGTGCTA	1.75 z-score
GACGGTATCGGCTATCGGGACGTGCTA	-0.518 z-score
GACGGTTCCCTTTGCCTGACGTGCTAG	0.935 z-score
GGAGTTTCCACCCTTCTCTCGTGCTAG	1.51 z-score
CTAGTTTTACTTTCTATCTCGTGCTAG	2.93 z-score
TTAGGCTTCGGGACTGGGTTAGTGCTA	-0.474 z-score
GATTTTTTCTGCTTAGAGCTGTGCTAG	0.577 z-score
GTGTATATGACAATGATGTTGTGCTAG	-0.0591 z-score
TCATCTTTCGATGCTAAAACTGTGCTA	1.31 z-score
TTTACTTTCTTTTTTTCTTTGTGCTAG	2.41 z-score
TTAGGTTTCTGTATCGGTTAGTGCTAG	3.37 z-score
GACGGTATCGGGTCTCGGGACGTGCTA	0.96 z-score
TTAGGTTTCCTACTGCTTTCGTGCTAG	1.09 z-score
TGCTTTTTAGAAATTTTTTTTGTGCTA	0.64 z-score
GACGGACTCCTTTTCCTGACGTGCTAG	0.839 z-score
TTAGAGATCAGTCTCGATTAGTGCTAG	1.11 z-score
TCTAACTTCCCAATGGTCTTGTGCTAG	0.828 z-score
TCAAGGGTCTGTTTGGGACTGTGCTAG	-0.244 z-score

A few entries again (sample 3):
Oligonucleotide	log2 enrichment
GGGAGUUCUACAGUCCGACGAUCUCCUGUGCUACACAUCGUAUGUACCGAAUCGGCCCCCCGGCCCCCCGGGGCCCCCCGGGGAAAGUAUUAUGUUACGCCGUUCGGAUCUGCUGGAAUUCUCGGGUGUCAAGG	-0.462
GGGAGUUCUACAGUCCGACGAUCUGUAUCCCUGUUUCUUUUCUCCCUACAGAAACAUAUGAGGAUUUUGAUACCAGGAUACUUGAGGUAGGCAUGCAGAAUUAAAUACCUGGUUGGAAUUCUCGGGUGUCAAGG	-0.166
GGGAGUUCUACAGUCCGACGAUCCCUGUGCUACACAUCGUAUGUACCGAAUCGGGCCCCCCCGGCCCCCCCGGGCCCCCCCGGAAAGUAUUAUGUUACGCCGUUCGGAUCUGCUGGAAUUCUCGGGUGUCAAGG	-0.614
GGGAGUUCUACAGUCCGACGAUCCUGUGCUACACAUCGUAUGUACCGAAUCGGGGAAAAAAAGGGAAAAAAAGGGAAAAAAAGGAAAGUAUUAUGUUACGCCGUUCGGAUCUGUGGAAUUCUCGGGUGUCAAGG	0.0532
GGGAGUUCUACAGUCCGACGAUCGUCCUGUGCUACACAUCGUAUGUACCGAAUCGGGUUUUUUUGGGAGGGAAAAAAAGGGAAAGUAUUAUGUUACGCCGUUCGGAUCUGCACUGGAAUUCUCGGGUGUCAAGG	-0.0437
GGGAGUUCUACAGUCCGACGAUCUCCUGUGCUACACAUCGUAUGUACCGAAUCGGCCCCCCGGGCCCCCCGGGGCCCCCCGGAAAGUAUUAUGUUACGCCGUUCGGAUCUGCAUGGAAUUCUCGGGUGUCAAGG	-0.391
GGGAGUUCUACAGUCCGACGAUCUGUGCUACACAUCGUAUGUACCGAAUCGGGGAAAAAGGGGUUUUUUUGGGGAAAAAAAGGGGAAAGUAUUAUGUUACGCCGUUCGGAUCUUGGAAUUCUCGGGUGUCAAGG	1.33
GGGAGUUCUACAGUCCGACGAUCGGCCCGACCUGAUCGACUUUGAUAAGCUGAAGGACUCCAAUGCCCGGCACAACCUGGAGCACGCAUUCAAUGUGGCUGAGCGCCAGCUGGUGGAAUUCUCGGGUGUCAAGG	-0.192
